Assay results collected from several papers.
Each line is one published result; not all experiments were run side by side. Values joined by “and” are separate records of one study, mostly repeats; a detail may differ. Numbers after ± are the reported error.

NCc1cc2c(cc1F)C(=O)N(C1CCC(=O)NC1=O)C2 (stereo not shown)
plasma concentration (CD-1 mice; intravenous, 1 mg/kg, 24 h): not detected

CC1(C)NC(=O)N(c2ccc(F)c(C(C)(F)F)c2)C1=O
plasma concentration (male Swiss outbred mice, plasma; oral, 100 mg/kg, 48 h): 22100 ± 1210 ng/mL

COc1cc(F)c([C@@H]2CNC(=O)[C@H]2NC(=O)Nc2ccccc2)c(F)c1
plasma concentration (C57BL/6 mice, LPS challenge, plasma; oral, 0.03 mg/kg, 1.5 h post dose): 2 ± 1 nM

O=C1CCC(N2Cc3cc(CO)c(F)cc3C2=O)C(=O)N1 (stereo not shown)
plasma concentration (CD-1 mice; intravenous, 1 mg/kg, 8 h): not detected

CN(CCCNC(=O)c1cccc(C(=O)O)c1)CCCNC(=O)c1cc(NC(=O)c2cc(NC(=O)c3cc(NC(=O)c4cc(NC(=O)[C@H](N)CCNC(=O)c5cc(NC(=O)c6cc(NC(=O)c7nc(NC(=O)c8nccn8C)cn7C)cn6C)cn5C)cn4C)cn3C)cn2C)cn1C
plasma concentration (HPLC; C57BL/6 mice; intraperitoneal, 120 nmol, 1.5 h): 13000 to 14000 nM

Cc1cc([C@@H](C)Nc2ccccc2C(=O)O)c2nc(N3CCC(F)(F)CC3)c(C#N)c(=O)n2c1
plasma concentration (NOD SCID mice, HCC1954 xenograft; oral, 300 mg/kg once daily, 1 h): 432 ng/mL

COc1nc(-c2cc(C)c(N[C@@H](C)c3c(F)cc(F)cc3F)nn2)ccc1-n1cnc(C)c1
plasma concentration (C57BL/6J mice, male, plasma; oral, 50 mg/kg daily for 9 days, 4 h after last dose): 15800 ng/mL

Cc1cc2sc(N)nc2c2cccnc12
plasma concentration (LC-MS; BALB/c mice, female; intraperitoneal, 30 mg/kg, 24 h): 10 ± 10 ng/mL

O=S(=O)(c1ccc(-c2ccc3nccc(Nc4ccncn4)c3c2)cc1)N1CCOCC1
plasma concentration (female BALB/c mice, plasma; intraperitoneal, 10 mg/kg, 0.08 h): 2270 ng/mL and 2750 ng/mL

O=Cc1cc2c(cc1F)C(=O)N(C1CCC(=O)NC1=O)C2 (stereo not shown)
plasma concentration (CD-1 mice; intravenous, 1 mg/kg, 24 h): not detected

O=[N+]([O-])c1ccc(-c2ccc(O)cc2)c2cccnc12
plasma concentration (male ICR mice, plasma; intravenous, 1 mg/kg, 0.0833 h): 510 ng/mL

COc1cc2c(Nc3ccc(Cl)c(Cl)c3F)ncnc2cc1OC[C@@H]1C[C@@H]2CN(C)C[C@@H]2C1
plasma concentration (FVB wild-type mice, both sexes, plasma; intraperitoneal infusion (osmotic pump), 10 mg/mL at 1 µL/h, 48 h): 1730 ng/g

CN(C)CC#Cc1ccc2[nH]c3c(c2c1)-c1nc(N)ncc1CCC3
plasma concentration (CD-1 mice, male, plasma; intraperitoneal, 30 mg/kg, 1 h): 809 ng/mL and 659 ng/mL

CC[C@H](C)[C@H](NC(=O)[C@H](CCC(=O)O)NC(=O)[C@H](CO)NC(=O)[C@@H](NC(=O)[C@@H](N)CO)C(C)C)C(=O)N[C@@H](CCC(N)=O)C(=O)N[C@@H](CC(C)C)C(=O)N[C@@H](CCSC)C(=O)N[C@@H](Cc1cnc[nH]1)C(=O)N[C@@H](CC(N)=O)C(=O)N[C@@H](CC(C)C)C(=O)NCC(=O)N[C@@H](CCCCN)C(=O)N[C@@H](Cc1cnc[nH]1)C(=O)N[C@@H](CC(C)C)C(=O)N[C@@H](CC(N)=O)C(=O)N[C@@H](CO)C(=O)N[C@@H](CCSC)C(=O)N[C@@H](CCC(=O)O)C(=O)N[C@@H](CCCNC(=N)N)C(=O)N[C@H](C(=O)N[C@@H](CCC(=O)O)C(=O)N[C@@H](Cc1c[nH]c2ccccc12)C(=O)N[C@@H](CC(C)C)C(=O)N[C@@H](CCCNC(=N)N)C(=O)N[C@@H](CCCCN)C(=O)N[C@@H](CCCCN)C(=O)N[C@@H](CC(C)C)C(=O)N[C@@H](CCC(N)=O)C(=O)N[C@@H](CC(=O)O)C(=O)N[C@H](C(=O)N[C@@H](Cc1cnc[nH]1)C(=O)N[C@@H](CC(N)=O)C(=O)N[C@@H](Cc1ccccc1)C(N)=O)C(C)C)C(C)C
plasma concentration (ELISA; female CD-1 mice, blood plasma; subcutaneous, 10 nmol/kg, 1 h): 0.117 nM

COc1nc(-c2cc(C)c(N[C@@H](C)c3cc(F)cc(F)c3)nn2)ccc1-n1cnc(C)c1
plasma concentration (C57BL/6J mice, male, plasma; oral, 10 mg/kg daily for 9 days, 4 h after last dose): 5120 ng/mL

CCN1CCN(Cc2ccc(NC(=O)c3ccc(C)c(NC(=O)c4cncc(-c5cccs5)c4)c3)cc2C(F)(F)F)CC1
plasma concentration (LC-MS/MS; C57BL/6 mice, plasma; intraperitoneal, 15 mg/kg, 24 h): not detected
